Earlier results that unrelated publications cite.
Each line is one published result; not all experiments were run side by side. Numbers after ± are the reported error.
HLA class I histocompatibility antigen, A alpha chain allele A*26:01: HLA class I histocompatibility antigen, A alpha chain, allele A*26:01 (Homo sapiens, UniProt P04439)

`Clc1cc2c(cc1Cl)Oc1cc(Cl)c(Cl)cc1O2` has an EC50 of 0.0188 ± 0.00678 µM (common carp AHR; reporter gene, agonist; Cyprinus carpio).
For `C/C=C1/CN2CC[C@]34C(=C(C(=O)OC)[C@H]1C[C@H]23)Nc1ccc(Br)cc14`, the IC50 was 0.0039 µM (kappa opioid receptor; adenylyl cyclase inhibition).
For `VGNVYVKF`, the IC50 was 1.06 µM (HLA class I histocompatibility antigen, A alpha chain allele A*26:01; peptide-MHC binding; peptide).
`CC(C)(C)[C@H](NC(=O)C(F)(F)F)C(=O)N1C[C@H]2[C@@H]([C@H]1C(=O)N[C@H](C#N)C[C@@H]1CCNC1=O)C2(C)C` — result for “hypertension adverse events”: 1% (adults at high risk of severe disease; dose not given; baseline: placebo).
`Cc1nc(Nc2ncc(C(=O)Nc3c(C)cccc3Cl)s2)cc(N2CCN(CCO)CC2)n1` gave an MTD of 180 mg (solid tumour patients).
The selectivity ratio of `C/C=C1/CN2CC[C@]34C(=C(C(=O)OC)[C@H]1C[C@H]23)Nc1ccc(I)cc14` is reported as 380 (kappa opioid receptor; baseline: KOR over 5-HT3 receptor).
With `QIIKLLPF` the IC50 was 13.3 µM (HLA class I histocompatibility antigen, A alpha chain allele A*26:01; peptide-MHC binding; peptide).
For `CC(C)c1nc(CN(C)C(=O)N[C@H](C(=O)N[C@@H](Cc2ccccc2)C[C@H](O)[C@H](Cc2ccccc2)NC(=O)OCc2cncs2)C(C)C)cs1`, “colchicine Cmax increase” read 184% (human; 100 mg twice daily).

A few entries again:
For `CC(C)c1nc(CN(C)C(=O)N[C@H](C(=O)N[C@@H](Cc2ccccc2)C[C@H](O)[C@H](Cc2ccccc2)NC(=O)OCc2cncs2)C(C)C)cs1`, “colchicine Cmax increase” read 184% (human; 100 mg twice daily).
